Results pooled from the literature.
Protocols differ between the studies behind these lines.
TMPRSS2: Transmembrane protease serine 2 (TMPRSS2, Homo sapiens, UniProt O15393)
Sequence of UniProt O15393 (whole entry, looked up): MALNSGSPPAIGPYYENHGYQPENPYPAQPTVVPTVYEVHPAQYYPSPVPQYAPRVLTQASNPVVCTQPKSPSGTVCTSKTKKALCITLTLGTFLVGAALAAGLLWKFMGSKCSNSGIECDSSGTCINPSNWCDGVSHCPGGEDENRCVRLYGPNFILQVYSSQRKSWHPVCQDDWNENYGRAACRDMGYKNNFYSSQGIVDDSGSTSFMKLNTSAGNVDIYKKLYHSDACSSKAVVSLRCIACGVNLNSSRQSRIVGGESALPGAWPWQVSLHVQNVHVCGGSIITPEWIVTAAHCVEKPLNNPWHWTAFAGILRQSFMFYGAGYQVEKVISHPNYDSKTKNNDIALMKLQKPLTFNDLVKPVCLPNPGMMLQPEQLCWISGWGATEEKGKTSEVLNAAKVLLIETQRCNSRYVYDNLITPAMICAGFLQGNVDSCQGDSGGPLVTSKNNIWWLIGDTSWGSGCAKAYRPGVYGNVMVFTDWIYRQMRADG
PFF0160c E182D: Dihydroorotate dehydrogenase (quinone), mitochondrial (PFF0160c, Plasmodium falciparum, UniProt Q08210, E182D)
Sequence of UniProt Q7L7X3 (whole entry, looked up): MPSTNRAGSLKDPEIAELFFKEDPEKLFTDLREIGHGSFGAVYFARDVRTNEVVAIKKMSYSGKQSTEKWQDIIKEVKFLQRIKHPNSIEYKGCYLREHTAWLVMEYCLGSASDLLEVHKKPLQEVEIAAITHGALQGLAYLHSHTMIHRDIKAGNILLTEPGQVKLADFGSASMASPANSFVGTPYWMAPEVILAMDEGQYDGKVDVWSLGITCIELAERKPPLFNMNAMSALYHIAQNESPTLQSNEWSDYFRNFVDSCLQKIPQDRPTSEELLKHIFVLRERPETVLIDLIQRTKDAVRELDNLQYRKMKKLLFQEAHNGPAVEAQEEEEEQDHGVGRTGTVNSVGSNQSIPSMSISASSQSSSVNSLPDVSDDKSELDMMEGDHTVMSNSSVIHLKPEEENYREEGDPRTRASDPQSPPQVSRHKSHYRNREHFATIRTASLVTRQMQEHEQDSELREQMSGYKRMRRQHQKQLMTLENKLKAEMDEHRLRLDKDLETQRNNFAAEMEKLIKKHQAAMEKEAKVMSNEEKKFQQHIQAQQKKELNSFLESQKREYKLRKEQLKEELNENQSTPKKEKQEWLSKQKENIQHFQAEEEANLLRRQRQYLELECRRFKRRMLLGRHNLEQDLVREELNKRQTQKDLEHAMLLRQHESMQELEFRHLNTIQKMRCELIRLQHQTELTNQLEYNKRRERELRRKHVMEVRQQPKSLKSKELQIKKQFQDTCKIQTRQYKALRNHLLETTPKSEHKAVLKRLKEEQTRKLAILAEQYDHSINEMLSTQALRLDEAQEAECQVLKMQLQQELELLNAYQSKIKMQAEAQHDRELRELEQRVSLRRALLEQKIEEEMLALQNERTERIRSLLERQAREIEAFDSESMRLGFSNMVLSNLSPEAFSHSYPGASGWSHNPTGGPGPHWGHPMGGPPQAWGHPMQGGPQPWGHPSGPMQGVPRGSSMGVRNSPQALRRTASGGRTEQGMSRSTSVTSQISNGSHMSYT
Sequence of UniProt P35363 (whole entry, looked up): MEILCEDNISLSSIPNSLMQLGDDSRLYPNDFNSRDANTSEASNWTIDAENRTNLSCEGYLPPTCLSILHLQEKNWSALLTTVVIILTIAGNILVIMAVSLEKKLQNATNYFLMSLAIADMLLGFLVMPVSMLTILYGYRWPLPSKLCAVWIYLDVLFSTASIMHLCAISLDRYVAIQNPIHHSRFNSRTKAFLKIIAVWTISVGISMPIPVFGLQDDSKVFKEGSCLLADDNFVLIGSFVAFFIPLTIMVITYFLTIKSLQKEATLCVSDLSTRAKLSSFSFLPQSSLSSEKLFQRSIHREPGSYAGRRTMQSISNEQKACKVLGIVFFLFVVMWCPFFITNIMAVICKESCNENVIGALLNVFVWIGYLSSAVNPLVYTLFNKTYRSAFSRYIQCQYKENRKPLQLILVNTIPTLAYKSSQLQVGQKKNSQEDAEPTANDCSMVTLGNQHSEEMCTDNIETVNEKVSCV
Sequence of UniProt P25101 (whole entry, looked up): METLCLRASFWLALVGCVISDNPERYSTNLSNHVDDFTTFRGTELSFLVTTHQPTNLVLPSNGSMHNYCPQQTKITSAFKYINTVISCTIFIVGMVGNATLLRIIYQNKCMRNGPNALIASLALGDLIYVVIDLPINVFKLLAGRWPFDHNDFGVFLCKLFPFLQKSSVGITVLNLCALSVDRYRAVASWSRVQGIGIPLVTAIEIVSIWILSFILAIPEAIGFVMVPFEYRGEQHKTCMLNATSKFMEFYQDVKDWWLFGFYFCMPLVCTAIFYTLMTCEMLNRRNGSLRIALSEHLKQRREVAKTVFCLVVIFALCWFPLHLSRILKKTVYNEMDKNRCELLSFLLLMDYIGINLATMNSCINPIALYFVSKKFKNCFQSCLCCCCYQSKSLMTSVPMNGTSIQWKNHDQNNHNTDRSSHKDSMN
Sequence of UniProt P35462 (whole entry, looked up): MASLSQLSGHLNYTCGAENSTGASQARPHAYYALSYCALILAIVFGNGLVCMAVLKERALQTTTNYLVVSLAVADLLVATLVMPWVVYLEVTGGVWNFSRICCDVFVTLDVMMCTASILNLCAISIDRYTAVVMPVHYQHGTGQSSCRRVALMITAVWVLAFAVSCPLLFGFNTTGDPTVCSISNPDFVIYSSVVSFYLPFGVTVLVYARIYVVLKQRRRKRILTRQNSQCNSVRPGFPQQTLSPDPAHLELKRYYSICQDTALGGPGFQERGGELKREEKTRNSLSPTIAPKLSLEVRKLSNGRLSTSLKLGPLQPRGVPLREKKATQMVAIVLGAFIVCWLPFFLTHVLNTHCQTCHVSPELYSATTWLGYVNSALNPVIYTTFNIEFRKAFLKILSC
Sequence of UniProt P07711 (whole entry, looked up): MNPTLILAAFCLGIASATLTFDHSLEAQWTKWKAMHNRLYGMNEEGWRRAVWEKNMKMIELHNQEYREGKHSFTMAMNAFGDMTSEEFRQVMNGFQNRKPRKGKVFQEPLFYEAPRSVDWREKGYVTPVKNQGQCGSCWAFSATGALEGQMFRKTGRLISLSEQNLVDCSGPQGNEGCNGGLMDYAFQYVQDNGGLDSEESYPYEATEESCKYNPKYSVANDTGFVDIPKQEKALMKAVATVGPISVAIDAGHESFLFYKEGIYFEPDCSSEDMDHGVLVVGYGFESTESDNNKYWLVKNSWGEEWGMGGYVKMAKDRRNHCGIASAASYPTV
Sequence of UniProt Q9Y4K4 (whole entry, looked up): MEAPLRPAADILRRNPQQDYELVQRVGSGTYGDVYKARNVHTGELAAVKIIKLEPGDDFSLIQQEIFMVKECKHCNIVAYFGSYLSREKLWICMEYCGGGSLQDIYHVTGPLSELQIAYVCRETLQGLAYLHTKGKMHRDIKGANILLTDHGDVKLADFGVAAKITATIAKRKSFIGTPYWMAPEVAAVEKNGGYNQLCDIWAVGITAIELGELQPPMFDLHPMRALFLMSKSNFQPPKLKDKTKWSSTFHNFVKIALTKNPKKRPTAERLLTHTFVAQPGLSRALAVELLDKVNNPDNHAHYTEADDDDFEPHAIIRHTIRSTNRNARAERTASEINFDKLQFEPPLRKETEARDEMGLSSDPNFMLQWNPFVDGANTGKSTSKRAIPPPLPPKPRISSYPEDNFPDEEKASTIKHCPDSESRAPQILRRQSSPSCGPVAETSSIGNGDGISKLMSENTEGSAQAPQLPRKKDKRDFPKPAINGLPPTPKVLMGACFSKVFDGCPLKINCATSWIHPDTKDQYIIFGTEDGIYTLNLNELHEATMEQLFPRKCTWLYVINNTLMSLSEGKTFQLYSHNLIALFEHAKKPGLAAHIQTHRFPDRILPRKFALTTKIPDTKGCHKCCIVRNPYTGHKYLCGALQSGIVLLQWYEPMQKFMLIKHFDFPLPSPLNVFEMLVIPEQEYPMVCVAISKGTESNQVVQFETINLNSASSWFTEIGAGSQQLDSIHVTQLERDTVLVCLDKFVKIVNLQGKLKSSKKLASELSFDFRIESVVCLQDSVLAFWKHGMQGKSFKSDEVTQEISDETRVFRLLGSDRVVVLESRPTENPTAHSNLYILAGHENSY
Sequence of UniProt Q07002 (whole entry, looked up): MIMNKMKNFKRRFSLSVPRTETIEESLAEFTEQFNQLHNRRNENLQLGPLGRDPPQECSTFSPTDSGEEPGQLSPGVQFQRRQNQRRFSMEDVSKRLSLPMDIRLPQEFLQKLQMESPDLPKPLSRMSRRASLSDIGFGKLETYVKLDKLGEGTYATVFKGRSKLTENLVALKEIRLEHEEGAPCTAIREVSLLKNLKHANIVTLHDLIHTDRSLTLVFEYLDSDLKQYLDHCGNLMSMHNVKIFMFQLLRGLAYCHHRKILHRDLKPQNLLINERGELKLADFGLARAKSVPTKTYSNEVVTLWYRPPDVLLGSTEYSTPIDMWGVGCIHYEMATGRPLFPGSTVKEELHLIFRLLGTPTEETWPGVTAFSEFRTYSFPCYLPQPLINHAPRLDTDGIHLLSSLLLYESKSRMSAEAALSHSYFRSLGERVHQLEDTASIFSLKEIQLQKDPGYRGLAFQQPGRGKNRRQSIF

| Structure (SMILES) | target | assay | setting | measurement | result |
| --- | --- | --- | --- | --- | --- |
| Nc1ncc(-c2nc(N3CCOCC3)nc(N3CCOCC3)n2)c(C(F)F)n1 | TAOK1 (Homo sapiens, UniProt Q7L7X3) | binding, competition with immobilised ligand | 10 µM | remaining binding | 60% |
| CC(=O)N[C@@H](CCC(N)=O)C(=O)N[C@@H](Cc1ccccc1)C(=O)N[C@H](CCCNC(=N)N)C(=O)Cc1ccccc1 | TMPRSS2 | enzyme activity, inhibitor | 1 nM | activity vs control | 94% |
| Cc1nn(C)cc1-c1nc2c(N3CCN(Cc4ccc(Cl)cc4)CC3)c(Cl)cnc2[nH]1 | LRRK2 (Homo sapiens, UniProt Q5S007) | binding, competition with immobilised ligand | 1 µM | remaining binding | 100% |
| CC(C)CCC(=O)N[C@@H](Cc1ccc(O)cc1)C(=O)N[C@H](C(=O)N[C@@H](CCCNC(=N)N)C(=O)c1nc2ccccc2s1)C(C)C | TMPRSS2 | enzyme activity, inhibitor | 1 nM | activity vs control | 92% |
| COc1ncccc1-c1cnn2ccc(N3CCN(C(=O)OC(C)C)CC3)nc12 | CDK18 (Homo sapiens, UniProt Q07002) | binding, competition with immobilised ligand | 1 µM | remaining binding | 100% |
| Cc1ccc(N2CCc3c(-c4cc5cccnc5nc4C)cc(C)nc32)c(Cl)c1 | PFF0160c E182D | enzyme activity, inhibitor, absorbance | – | IC50 | 0.0769 µM |
| CN1CCC[C@H]1c1cccnc1 | DRD3 (Homo sapiens, UniProt P35462) | ligand displacement | 50 µM | inhibition | -1.29% |
| [2H]c1c([2H])c([C@]2([2H])CCCN2C(=O)C(C)(C)Oc2ccc3cn[nH]c3c2)c([2H])c([2H])c1C([2H])([2H])[2H] | MAP4K5 (Homo sapiens, UniProt Q9Y4K4) | binding, competition with immobilised ligand | 1 µM | remaining binding | 100% |
| COc1cc(C(F)(F)F)c(OC)cc1C1CCCNC1 (centres unmarked) | Htr2a (Mus musculus, UniProt P35363) | G protein activation, agonist, BRET | – | Emax | 95% |
| CN(CC[C@H](N)CC(=O)N[C@H]1C=C[C@H](n2ccc(N)nc2=O)O[C@@H]1C(=O)O)C(=N)N | Procathepsin L (CTSL, Homo sapiens, UniProt P07711) | enzyme activity, inhibitor | 100 µM | remaining activity | 160% |
| O=c1[nH]c(CSc2ccc3c(c2)CCC3)nc2scc(-c3ccco3)c12 | PFF0160c E182D | enzyme activity, inhibitor, absorbance | – | IC50 | 8.6 µM |
| N=C(N)NCCC[C@@H](N)C(=O)N[C@H](CCC(N)=O)C(=O)N[C@@H](Cc1ccccc1)C(=O)N[C@@H](CCCNC(=N)N)C(=O)c1nc2ccccc2s1 | TMPRSS2 | enzyme activity, inhibitor | 1 nM | activity vs control | 26% |
| C#Cc1n[nH]c2c(-c3cn(C(C)c4ccccn4)c(=O)[nH]c3=O)cc(F)cc12 (centres unmarked) | AXL (Homo sapiens, UniProt P30530) | enzyme activity, inhibitor | 1 µM | inhibition | 46% |
| CC(C)CC(=O)OC[C@H]1O[C@@](C#N)(c2ccc3c(N)ncnn23)[C@H](O)[C@@H]1O | EDNRA (Homo sapiens, UniProt P25101) | cell-free assay | 20 µM | inhibition | -2% |

A few entries again:
| Structure (SMILES) | target | assay | setting | measurement | result |
| --- | --- | --- | --- | --- | --- |
| COc1ncccc1-c1cnn2ccc(N3CCN(C(=O)OC(C)C)CC3)nc12 | CDK18 (Homo sapiens, UniProt Q07002) | binding, competition with immobilised ligand | 1 µM | remaining binding | 100% |
